Experimental data pooled from the literature.
Lines come from different studies, so protocols differ. “And” joins repeats or separate records; there may be more than shown. ± marks the error that the study gave.
B1: C19orf43 protein; sequence looked up; chain MAARGRRAEPQGREAPGPAGGGGGGSRWAESGSGTSPESGDEEVSGAGSSPVSGGVNLFANDGSFLELFKRKMEEEQRQRQEEPPPGPQRPDQSAAAAGPGDPKRKGGPGSTLSFVGKRRGGNKLALKTGIVAKKQKTEDEVLTSKGDAWAKYMAEVKKYKAHQCGDDDKTRPLVK
B2: CYR61; sequence looked up; chain TCPAACHCPLEAPKCAPGVGLVRDGCGCCKVCAKQLNEDCSKTQPCDHTKGLECNFGASSTALKGICRAQSEGRPCEYNSRIYQNGESFQPNCKHQCTCIDGAVGCIPLCPQELSLPNLGCPNPRLVKVTGQCCEEWVCDEDSIKDPMEDQDGLLGKELGFDASEVELTRNNELIAVGKGSSLKRLPVFGMEPRILYNPLQGQKCIVQTTSWSQCSKTCGTGISTRVTNDNPECRLVKETRICEVRPCGQPVYSSLKKGKKCSKTKKSPEPVRFTYAGCLSVKKYRPKYCGSCVDGRCCTPQLTRTVKMRFRCEDGETFSKNVMMIQSCKCNYNCPHANEAAFPFYRLFNDIHKFRD
B3: EEF1A1; sequence looked up; chain GKEKTHINIVVIGHVDSGKSTTTGHLIYKCGGIDKRTIEKFEKEAAEMGKGSFKYAWVLDKLKAERERGITIDISLWKFETSKYYVTIIDAPGHRDFIKNMITGTSQADCAVLIVAAGVGEFEAGISKNGQTREHALLAYTLGVKQLIVGVNKMDSTEPPYSQKRYEEIVKEVSTYIKKIGYNPDTVAFVPISGWNGDNMLEPSANMPWFKGWKVTRKDGNASGTTLLEALDCILPPTRPTDKPLRLPLQDVYKIGGIGTVPVGRVETGVLKPGMVVTFAPVNVTTEVKSVEMHHEALSEALPGDNVGFNVKNVSVKDVRRGNVAGDSKNDPPMEAAGFTAQVIILNHPGQISAGYAPVLDCHTAHIACKFAELKEKIDRRSGKKLEDGPKFLKSGDAAIVDMVPGKPMCVESFSDYPPLGRFAVRDMRQTVAVGVIKAVDKKAAGAGKVTKSAQKAQKAK
B4: DDX47; sequence looked up; chain AAPEEHDSPTEASQPIVEEEETKTFKDLGVTDVLCEACDQLGWTKPTKIQIEAIPLALQGRDIIGLAETGSGKTGAFALPILNALLETPQRLFALVLTPTRELAFQISEQFEALGSSIGVQSAVIVGGIDSMSQSLALAKKPHIIIATPGRLIDHLENTKGFNLRALKYLVMDEADRILNMDFETEVDKILKVIPRDRKTFLFSATMTKKVQKLQRAALKNPVKCAVSSKYQTVEKLQQYYIFIPSKFKDTYLVYILNELAGNSFMIFCSTCNNTQRTALLLRNLGFTAIPLHGQMSQSKRLGSLNKFKAKARSILLATDVASRGLDIPHVDVVVNFDIPTHSKDYIHRVGRTARAGRSGKAITFVTQYDVELFQRIEHLIGKKLPGFPTQDDEVMMLTERVAEAQRFARMELREHGEKKKRSREDAGDNDDTEGAIGVRNKVAGGKMKKRKGR
B5: cystatin B; sequence looked up; chain MMCGAPSATQPATAETQHIADQVRSQLEEKENKKFPVFKAVSFKSQVVAGTNYFIKVHVGDEDFVHLRVFQSLPHENKPLTLSNYQTNKAKHDELTYF

Substance	tested on	test	test system	setting	scale	endpoint	value
GWTLNSAGYLLGPHAVDNHRSFNDKHGFT-NH2 (C-amide)		RT-qPCR, refers to: Tjp1	peptide, mouse, DSS-induced colitis, colon	ip, 3 µM, 3% DSS, unit not given	relative to: Gapdh	mRNA level	3.92 and 5.5 and 7.14 and 4.77
pertussis toxin		immunostaining, refers to: p-PKC	humanized UT (+/h+) mice, SAH model, meninges	dose not given		phospho-PKC level	42.2 MFI and 37.5 MFI and 67.5 MFI
KISEYRHYC	HN12 (HLA-A2+ HPV+)	111In release	peptide	concentration not given, 16 h, E:T 25:1 IVS 5, with: peptide-generated T-cell line		specific lysis	10.2%
KINLTAPGG	Mamu-A1*02601 MHC class I	peptide binding	peptide, Chinese rhesus macaque			IC50	> 20 µM
TLHEYMLDV	Ca-Ski (HLA-A2+ HPV+)	111In release	peptide	concentration not given, 16 h, E:T 25:1 IVS 5, with: peptide-generated T-cell line		specific lysis	41.9%
B1 (C19orf43 protein)		peptide binding, SILAC pull-down		concentration not given	relative to: non-acetylated over acetylated NIT1 peptide	log2 fold change	-0.685
caspofungin	Aspergillus fumigatus	Alamar blue		0.2 µg/mL		metabolic activity	100%
aspterric acid		root length	Arabidopsis thaliana Col-0 seeds	50 µg/mL		inhibition	99.2%
B2 (CYR61)		peptide binding, SILAC pull-down		concentration not given	relative to: non-acetylated over acetylated NIT1 peptide	log2 fold change	-0.411
CEMDGQCKRDLKCCMGMCGKSCVSPVKA	p38 MAPK (mouse)	Western blot	peptide, RAW264.7	0.1 and 1 µg/mL		p38/β-actin ratio	decreased
KLPQLCTEL	HN12 (HLA-A2+ HPV+)	111In release	peptide	concentration not given, 16 h, E:T 25:1 IVS 5, with: peptide-generated T-cell line		specific lysis	16.5%
lead	U87 glioblastoma	CCK-8		1 µM, 24 h, unit not given	relative to: untreated control	viability	0.55
cofilin-1		peptide binding, SILAC pull-down		concentration not given	relative to: non-acetylated over acetylated NIT1 peptide	log2 fold change	-0.442
colistin	Aspergillus fumigatus		solid minimal medium	50 µM, 4 d	relative to: untreated control	radial growth ratio	0.867 and 0.847 and 0.838
mastoparan	Swiss 3T3 quiescent	[3H]thymidine incorporation		40 h, with: insulin 1 µg/mL		concentration for maximal DNA synthesis	17 µM
nonaarginine	PorA peptide pore	peptide binding, planar bilayer single-channel recording		0.5 µM, pH 7.4, +20 mV, trans side, 150 mM KCl		kon	1.3e+07 ± 1e+06 M⁻¹ s⁻¹
B3 (EEF1A1)		peptide binding, SILAC pull-down		concentration not given	relative to: non-acetylated over acetylated NIT1 peptide	log2 fold change	0.731
(−)-antroquinonol A	LNCaP	cytotoxicity, MTS		72 h		IC50	> 25 µM
insulin human		refers to: GRIN2A mRNA	uninfected mouse, brain	i.p., dose not given	relative to: PBS	fold change	1.2
Polymyxin B	Escherichia coli	broth microdilution	E25 clinical isolate	20 h		MIC	0.5 µg/mL
hexaarginine	PorA peptide pore	peptide binding, planar bilayer single-channel recording		0.5 µM, pH 7.4, +5 mV, trans side, 150 mM KCl		kon	3.33e+07 ± 3.5e+06 M⁻¹ s⁻¹
B4 (DDX47)		peptide binding, SILAC pull-down		concentration not given	relative to: non-acetylated over acetylated NIT1 peptide	log2 fold change	0.0618
QLGIPHPAG	Mamu-A1*02601 MHC class I	peptide binding	peptide, Chinese rhesus macaque			IC50	> 20 µM
PCSEETPAISPSK (dUTPase)		peptide binding, SILAC pull-down		concentration not given	relative to: non-acetylated over acetylated NIT1 peptide	log2 fold change	-0.224
APVPIPFAA	Mamu-A1*02601 MHC class I	peptide binding	peptide, Chinese rhesus macaque			IC50	> 20 µM
B5 (cystatin B)		peptide binding, SILAC pull-down		concentration not given	relative to: non-acetylated over acetylated NIT1 peptide	log2 fold change	-0.522
GWTLNSAGYLLGPRRIDHLLMIKEMPIARGREEAPGA / YAVDNHRSFNDKHGFT-NH2 (C-amide)			female mice, DSS-induced colitis	ip, 3 µM		colon length	7.4 cm and 7.2 cm and 7.8 cm and 7.5 cm and 7.3 cm
ECM29		peptide binding, SILAC pull-down		concentration not given	relative to: non-acetylated over acetylated NIT1 peptide	log2 fold change	3.08
YMLDLQPET	Ca-Ski (HLA-A2+ HPV+)	111In release	peptide	concentration not given, 16 h, E:T 25:1 IVS 5, with: peptide-generated T-cell line		specific lysis	39.8%

Some of these lines once more:
Substance	tested on	test	test system	setting	scale	endpoint	value
PCSEETPAISPSK (dUTPase)		peptide binding, SILAC pull-down		concentration not given	relative to: non-acetylated over acetylated NIT1 peptide	log2 fold change	-0.224
APVPIPFAA	Mamu-A1*02601 MHC class I	peptide binding	peptide, Chinese rhesus macaque			IC50	> 20 µM
B5 (cystatin B)		peptide binding, SILAC pull-down		concentration not given	relative to: non-acetylated over acetylated NIT1 peptide	log2 fold change	-0.522
